# Results pooled from the literature.
# Each line is one published result; not all experiments were run side by side. Numbers after ± are the reported error.
# TDP1: Tyrosyl-DNA phosphodiesterase 1 (TDP1, Homo sapiens, UniProt Q9NUW8)
# UniProt Q9NUW8, sequence (whole entry, looked up): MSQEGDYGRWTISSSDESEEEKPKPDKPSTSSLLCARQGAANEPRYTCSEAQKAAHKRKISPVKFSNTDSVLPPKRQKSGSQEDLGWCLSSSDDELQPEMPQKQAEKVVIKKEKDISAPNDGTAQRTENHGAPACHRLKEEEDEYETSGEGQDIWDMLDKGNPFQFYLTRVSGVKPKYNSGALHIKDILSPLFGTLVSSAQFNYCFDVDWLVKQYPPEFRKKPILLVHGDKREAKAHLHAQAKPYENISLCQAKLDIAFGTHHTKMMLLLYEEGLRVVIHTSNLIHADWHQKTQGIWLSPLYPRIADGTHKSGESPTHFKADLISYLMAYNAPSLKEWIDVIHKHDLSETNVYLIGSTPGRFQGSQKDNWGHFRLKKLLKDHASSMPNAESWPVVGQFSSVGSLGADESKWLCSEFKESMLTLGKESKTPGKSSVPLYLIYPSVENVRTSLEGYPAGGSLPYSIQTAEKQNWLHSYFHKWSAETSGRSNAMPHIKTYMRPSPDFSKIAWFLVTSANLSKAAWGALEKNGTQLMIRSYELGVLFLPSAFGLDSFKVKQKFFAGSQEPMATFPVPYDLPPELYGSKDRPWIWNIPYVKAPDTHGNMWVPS
Compound,target or system,assay,system,setting,measurement,result
CCCCCCCCCC(=O)Oc1c(C)c(OC)c2c(c1C)OC(=O)C(CCCCCCCC)C2(O)C=Cc1ccccc1 (centres unmarked),normal human liver cell line,"cytotoxicity, SRB",,72 h,IC50,> 50 µM
O=C(O)c1ccc(Nc2c(-c3ccc(CON=Cc4cccc(Oc5ncccn5)c4)cc3)nc3cc(-c4ccccc4)ccn23)cc1 (mixture of isomers),TDP1,"enzyme activity, inhibitor",,"100 µM, unpurified compound",inhibition,67.4%
C[N+](C)(CI)CCO,HepG2,cell viability,galactose medium,"24 h, mitochondrial toxicity",IC50,> 150 µM
CCCCCCCCCCCC(=O)Oc1c(C)c(OC)c2c(/C=C/c3ccccc3)c(CCCCCCCCCC)c(=O)oc2c1C,normal human liver cell line,"cytotoxicity, SRB",,72 h,IC50,> 50 µM
O=C1C(Br)=C(Br)C(=O)c2ccccc21,MRC-5,"cytotoxicity, MTT",,"48 h, 10% FBS",IC50,94.5 ± 2.84 µM
COc1ccc2ncc(F)c(C[C@H](O)[C@H]3OC[C@H](NCc4ccc(Cl)c(Cl)c4)CO3)c2c1,HepG2,cytotoxicity,,24 h,IC50,54.5 µg/mL
COc1c(C)c(OC(=O)c2ccc3ccccc3c2)c(C)c(O)c1C(=O)/C=C/c1ccccc1,normal human liver cell line,"cytotoxicity, SRB",,72 h,IC50,> 50 µM
COc1ccc2ncc(F)c(CC[C@@]3(O)CO[C@@H]4[C@@H](NCc5ccc(C)cc5)CO[C@@H]43)c2n1,HepG2,cytotoxicity,,24 h,IC50,117 µg/mL
NC1=C(Cl)C(=O)c2cccc([N+](=O)[O-])c2C1=O,MRC-5,"cytotoxicity, MTT",,"48 h, 10% FBS",IC50,15.2 ± 0.4 µM
COc1ccc2nccc(CC[C@H]3OC[C@H](NC(=O)c4ccc5c(c4)NC(=O)CO5)CO3)c2c1,HepG2,cytotoxicity,,24 h,IC50,> 128 µg/mL
COc1cc(C=NOCc2ccc3nc(-c4ccccc4)c(Nc4ccc(C(=O)O)cc4)n3c2)c(O)c(CN2CCOCC2)c1 (mixture of isomers),TDP1,"enzyme activity, inhibitor",,"100 µM, unpurified compound",inhibition,9.9%

# Excerpt of the above:
Compound,target or system,assay,system,setting,measurement,result
COc1ccc2ncc(F)c(CC[C@@]3(O)CO[C@@H]4[C@@H](NCc5ccc(C)cc5)CO[C@@H]43)c2n1,HepG2,cytotoxicity,,24 h,IC50,117 µg/mL
O=C1C(Br)=C(Br)C(=O)c2ccccc21,MRC-5,"cytotoxicity, MTT",,"48 h, 10% FBS",IC50,94.5 ± 2.84 µM
